Assay results collected from several papers.
Numbered parts are unrelated; each lists some results of a single study.

Study 1
Target: Histone acetyltransferase KAT6A, winged helix 2, GST fusion (KAT6A, Homo sapiens, UniProt Q92794, residues 85-181)
Technique: protein binding microarray
Molecule type: double-stranded DNA, one strand shown
Sample: in vitro
Tested at: not given
Notes: 8-mer, flanks averaged, mean of 2 arrays, mostly near background
Reference: not given
Reading: higher = stronger binding
Construct (chain): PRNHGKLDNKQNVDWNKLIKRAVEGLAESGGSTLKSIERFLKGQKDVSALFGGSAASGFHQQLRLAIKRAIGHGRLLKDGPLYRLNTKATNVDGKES
| Strand | E-score |
| --- | --- |
| CCCAGACC | 0.0192 |
| GACCTACC | 0.00093 |
| ACGAATCG | 0.0333 |
| ACGATGAT | -0.164 |
| TACAACTA | -0.038 |
| GGGCATTA | -0.0882 |
| ATTGCGAC | 0.0248 |
| AGACTCCG | -0.0726 |
| GGCCAGCC | 0.137 |
| CAGCTGCG | 0.133 |
| AATAATTC | 0.159 |
| CCTCTTCC | -0.122 |
| CCGGATAA | 0.0999 |
| CCAGATCC | 0.0978 |
| AAGACCGG | -0.0973 |
| ATGGTAAG | -0.114 |
| ACGCCAGT | 0.0984 |
| AATATCCA | 0.117 |
| CCGATGAA | 0.103 |

Study 2
Target: Ras GTPase-activating protein-binding protein 1, full length (G3BP1, Homo sapiens, UniProt Q13283)
Sequence of UniProt Q13283 (whole entry, looked up): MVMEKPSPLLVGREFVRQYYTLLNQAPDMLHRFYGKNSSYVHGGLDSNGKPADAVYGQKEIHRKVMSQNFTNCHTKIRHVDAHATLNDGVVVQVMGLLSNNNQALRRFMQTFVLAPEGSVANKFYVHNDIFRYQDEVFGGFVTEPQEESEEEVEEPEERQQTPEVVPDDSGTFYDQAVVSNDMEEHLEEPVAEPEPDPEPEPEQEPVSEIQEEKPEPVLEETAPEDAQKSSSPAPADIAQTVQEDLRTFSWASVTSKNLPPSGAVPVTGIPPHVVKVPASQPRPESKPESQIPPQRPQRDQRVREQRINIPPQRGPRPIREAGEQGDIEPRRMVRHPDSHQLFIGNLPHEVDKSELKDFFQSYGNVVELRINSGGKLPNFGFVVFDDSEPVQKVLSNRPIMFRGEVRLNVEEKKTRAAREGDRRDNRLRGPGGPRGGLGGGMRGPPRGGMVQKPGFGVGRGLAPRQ
Technique: RNA Bind-n-Seq
Molecule type: RNA
Sample: in vitro
Tested at: 200 nM
Notes: whole 134-nt RNA, ends assumed
Added: 150 mM KCl
Reference: input library
Reading: higher = stronger binding
| Strand | log2 enrichment |
| --- | --- |
| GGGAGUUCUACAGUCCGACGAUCCUCAAGUCCUGUGCUACACAUCGUAUGUACCGAAUCGGGGAGGGGAGGGAGGGGAAAGUAUUAUGUUACGCCGUUCGGAUCUGCACUUCCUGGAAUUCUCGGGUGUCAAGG | 1.43 |
| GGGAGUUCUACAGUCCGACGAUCGUCCUGUGCUACACAUCGUAUGUACCGAAUCGGGGAAAAAGGGGUUUUUGGGGAGGGGAAAGUAUUAUGUUACGCCGUUCGGAUCUGCACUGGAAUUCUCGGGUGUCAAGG | 0.439 |
| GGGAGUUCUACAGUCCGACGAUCUCAAGUCCUGUGCUACACAUCGUAUGUACCGAAUCGGGAAAGGGUGGGAAAGGGAAAGUAUUAUGUUACGCCGUUCGGAUCUGCACUUCCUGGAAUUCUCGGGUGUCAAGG | 1.04 |
| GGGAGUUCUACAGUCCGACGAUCCUGUGCUACACAUCGUAUGUACCGAAUCGGGAAAAAAAGGAAAAAAAGGGGAAAAAAAGGGAAAGUAUUAUGUUACGCCGUUCGGAUCUGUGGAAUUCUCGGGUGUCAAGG | -0.849 |
| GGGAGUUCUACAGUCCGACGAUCUGGGAGGUGGAUUUUGUUUAUUUUUUUAGCUCAUUUCCAGGGGUGGGAAUUUUUUUUUAAUAUGUGUCAUGAAUAAAGAUGUUUUUGAAAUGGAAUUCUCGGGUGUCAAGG | 0.071 |
| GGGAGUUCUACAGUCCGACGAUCUGGGAGGUGGAUUUUGUUUAUUUUUUUAGCUCAUUUCCAGGGGUGGGAAUUUUUUUUUAAUAUGUGUCAUGAGUAAAGUUGUUUUUGAAAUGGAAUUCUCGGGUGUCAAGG | 0.377 |
| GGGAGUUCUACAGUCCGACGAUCCACAGACAACACGCACCCACACAGACACAGAGGGAAGGGGUUGGGAUGGGGACAGGGUGCACAGCAGGGCGGGCUAGGACCCCAGCCCCUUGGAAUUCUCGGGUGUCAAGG | 1.99 |
| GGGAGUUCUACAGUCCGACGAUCCACAGACAACACGCACCCACACAGACACAGAGGGAAGGGGUUAGGAUGGGGACAGGGUGCACAGCAGGGCGGGGUAGGACCCCAGCCCCUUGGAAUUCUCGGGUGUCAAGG | 1.74 |
| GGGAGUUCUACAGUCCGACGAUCAGUCCUGUGCUACACAUCGUAUGUACCGAAUCAAAUUUUUUUAAACCCAAAUUUAAAAAAGUAUUAUGUUACGCCGUUCGGAUCUGCACUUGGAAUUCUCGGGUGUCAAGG | -1.05 |
| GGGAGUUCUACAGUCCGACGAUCCCUGUGCUACACAUCGUAUGUACCGAAUCGGCCCCCCCGGCCCCCCCGGGCCCCCCCGGGAAAGUAUUAUGUUACGCCGUUCGGAUCUGCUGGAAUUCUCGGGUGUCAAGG | 0.14 |
| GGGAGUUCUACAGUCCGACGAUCUUUGAUGACAGUCUGCAGGAGCUGCCUGGUGAAGUACCUGGAGGAGAACAACACCUGCCCCACCUGCAGGAUUGUGAUCCACCAGAGCCAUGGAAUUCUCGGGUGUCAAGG | -0.88 |
| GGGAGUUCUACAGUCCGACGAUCAAGUCCUGUGCUACACAUCGUAUGUACCGAAUCGGUUUUUUUGGAAAGGAAAAAGGAAAGUAUUAUGUUACGCCGUUCGGAUCUGCACUUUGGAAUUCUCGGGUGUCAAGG | -1.5 |
| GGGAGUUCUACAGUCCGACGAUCUCAAGUCCUGUGCUACACAUCGUAUGUACCGAAUCGGAAAGGAGGAAAAAAAGGAAAGUAUUAUGUUACGCCGUUCGGAUCUGCACUUCCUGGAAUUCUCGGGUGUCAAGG | -0.892 |
| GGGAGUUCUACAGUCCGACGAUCUAGUGAAAUUUCUAAUAUAUAUAUUUUUUUCUUUAGGAGAAGAAACGAAUGCAUCAGAUCAACAGAAUGAACCCCAGUUAGGCCUGAAAGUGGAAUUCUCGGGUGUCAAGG | -1.01 |

Study 3
Target: RNA binding protein fox-1 homolog 2, RRM domain, GST-SBP tag (RBFOX2, Homo sapiens, UniProt O43251-10, residues 100-194)
Technique: RNA Bind-n-Seq
Molecule type: RNA
Sample: in vitro
Tested at: 365 nM
Notes: natural RNA segment, single round, ends assumed
Reference: no-protein control
Reading: higher = stronger binding
Residues (chain): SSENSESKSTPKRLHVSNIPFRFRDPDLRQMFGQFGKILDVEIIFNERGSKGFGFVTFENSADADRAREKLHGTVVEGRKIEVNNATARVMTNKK
| Strand | RBNS enrichment (R) |
| --- | --- |
| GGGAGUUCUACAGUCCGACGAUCUAAACUGUAAGAUGAGCAGGAGAUGAUCACUGGGAGAGAAAGCAUACUGGAUUGAAGGAAGGGCUGUCUCCUUUUAACUUCUUGUUGAUAGUUGCAAGUUCUUUAUGCACUGGAAUUCUCGGGUGCCAA | 0.681 |
| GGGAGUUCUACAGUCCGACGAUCACCUGGGGGGUAUUUUUUGCCCUCCGUUGGGACACCAGUCUUCGGUGUGUGGAAAUGUGGAAGUCCUUUUGCCCAUGUGAAGACAUGCUUUCCUCAGGGGGGGGGGGUGUUGGAAUUCUCGGGUGCCAA | 0.329 |
| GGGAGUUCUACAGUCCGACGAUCGUUUCUUUUGGAGUACAACAUGUAUGCCGUUUACAACACACACAUGGUAACGGGGAUCACAUGCUCCAUGGUGCGCACGAUCCUGUGGUGUGAAGAGCAGGUCUGCUUUAUGGAAUUCUCGGGUGCCAA | 1.04 |
| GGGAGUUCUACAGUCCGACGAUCCACCACCCUGUGCCCCAGAUGAUGGAUUGAUUGUACAGAAAUCAUGCUGCCAUGCUGGGGGGGGGUCACCCCGACCCCUCAGGCCCACCUGUCACGGGGAACAUGGAGCCUGGAAUUCUCGGGUGCCAA | 0.221 |
| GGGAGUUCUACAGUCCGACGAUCCACUGGAAGUCAUAGAAAUUUCCCUGGUCAUGCUUUGUUUGAACUGUCACUGAAUGAACCUUAUCGGGCAUAACUACAUGAAAAUGCAGUGACAGCUGAGUGUGCUGUGUUGGAAUUCUCGGGUGCCAA | 0.71 |
| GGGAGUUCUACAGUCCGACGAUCCCCCUCAUUUCCCAUGGAUGGUGGGACCCCAUUAUUCUCUCAUCUCGGCAUUCAGGGAACAGUUUCCUUAGCGGCCCCUGGUCACAUGUCAUCGGGCUGGGCAGGAAGCGUGGAAUUCUCGGGUGCCAA | 0.465 |
| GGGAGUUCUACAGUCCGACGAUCAAUACACUUGGAUCACAUUCACUUCCUGUGGAAAAGCUAGCUUUCCCAUGCAGUCAAAGCUUAUAAAGUUAUUUGCCUUAGGCAAAGCCAUUCAUUUCUUUUACCUAUAGUGGAAUUCUCGGGUGCCAA | 0.439 |
| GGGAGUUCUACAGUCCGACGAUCCGCCAUCUCCCGUGAGGCUUACAGAUUUCAAUAUUGGGAACAACUCUAAUCCUCAAACUAAGCCACCGUUUGGACUGCUAGUGUCACAGUUCGGGUGUUCCAUUGCACCCUGGAAUUCUCGGGUGCCAA | 0.536 |
| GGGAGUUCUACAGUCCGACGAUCCCCAGCCUCUGUGACAGUGACCGUCUCCCUUUGUACAUACUUGCACACAGGUUCCCCAUGUACAUACAUGCACAUACUCAAACAUGCGUACACACACACACAUUUACACAUGGAAUUCUCGGGUGCCAA | 1.01 |
| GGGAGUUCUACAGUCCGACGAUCAAAACAUCAGUUUCCUCUCAUACAUUCCAAGUAAACCAAGUAAAAUAAGUGUUGGAGUAACACUUGCAUAAAAGAAUUUAAGGAGUGAUAGCUCUUUCUGUUCUGCCAUUUGGAAUUCUCGGGUGCCAA | 0.393 |
| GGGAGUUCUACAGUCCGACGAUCUUGUUACCCUACACAUUUCAUGGAAGCAUCUUCACAAAAUAUCAGACACAGUGGAAGGGGGAAAAAAAGCUACGAGAUUGUUUUUACACUUUUAGCAAAGUUUCUGUGGAUGGAAUUCUCGGGUGCCAA | 1.2 |
| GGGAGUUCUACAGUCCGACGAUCCAUGUGGAUCAGGCCCAGGAAGGGCACAGGGGCUGAGCACUACAGAAGUCACAUGGGUUCUCAGGGUAUGCCAGGGGCAGAAACAGUACCGGCUCUCUGUCACUCACCUUUGGAAUUCUCGGGUGCCAA | 0.441 |

Study 4
Target: Interferon regulatory factor 7, full length, phosphomimetic (IRF7, Homo sapiens, UniProt Q92985, residues 1-503, S101K/S471D/S472D/S475D/S476D/S477D/S483D/S484D/S487D)
Technique: protein-binding microarray
Molecule type: double-stranded DNA, one strand shown
Sample: in vitro
Tested at: 250 nM
Notes: 60-bp whole probe
Added: salmon DNA 0.4 mg/ml
Reference: random background probes
Reading: higher = stronger binding
All sequences stand within: GCCTAGCAC … GTCTTGATTCGCTTGACGCTGCTG
Residues (chain): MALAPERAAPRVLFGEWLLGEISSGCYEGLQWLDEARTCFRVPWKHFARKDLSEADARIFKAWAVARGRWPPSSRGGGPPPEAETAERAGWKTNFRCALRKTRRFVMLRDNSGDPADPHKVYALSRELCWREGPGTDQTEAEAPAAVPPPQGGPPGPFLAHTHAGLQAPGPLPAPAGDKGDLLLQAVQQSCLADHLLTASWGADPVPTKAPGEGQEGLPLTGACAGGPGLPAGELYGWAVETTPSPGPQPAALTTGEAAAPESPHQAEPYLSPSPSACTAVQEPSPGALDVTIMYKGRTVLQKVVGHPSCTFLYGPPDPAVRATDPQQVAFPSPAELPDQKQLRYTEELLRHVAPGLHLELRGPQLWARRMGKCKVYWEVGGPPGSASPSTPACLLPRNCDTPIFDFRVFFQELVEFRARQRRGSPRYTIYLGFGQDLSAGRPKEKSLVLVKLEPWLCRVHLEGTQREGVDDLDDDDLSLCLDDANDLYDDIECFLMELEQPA
| Strand | log fluorescence [z-score] |
| --- | --- |
| GACGGTTTCGGGTTTCGTGACGTGCTA | 10.8 |
| TCAACTCCCCAACTCGCACTGTGCTAG | -0.298 |
| TTAGGTTTCGGTTTCGGTCAGTGCTAG | 14.2 |
| GACGGTATCGACTCTGGGGACGTGCTA | 0.136 |
| TCACTTCTCAATTAAAAACTGTGCTAG | 1.52 |
| TTAGGTATCCTTATCCTTTTGTGCTAG | 0.292 |
| TTACATTTCAGTATCGATTAGTGCTAG | 1.41 |
| GAAGGTATCCTACTGCTGACGTGCTAG | -0.274 |
| TTAGGACTGGACACTCGGTTAGTGCTA | -0.656 |
| TTAGGACTGGACACTGGGCTAGTGCTA | -0.397 |
| TTAGATTTCGGGTTTCGCTTAGTGCTA | 5.63 |
| TCAGTTTTCATTTTATGACTGTGCTAG | 3.82 |
| GACGGAATGGGGTATCGGGACGTGCTA | -0.47 |
| TTAGGTCTCGGCTTCGGTTAGTGCTAG | 1.23 |
| GACGGTCTCCTTCTCCTGACGTGCTAG | -0.00491 |
| TCCTCTCTGCCACTCAGGTAGTGCTAG | 0.186 |
| GTGGAAATCAGTATGTTCCCGTGCTAG | -0.0434 |
| TCATTTTTACCTGTGGTACTGTGCTAG | 0.481 |
| TACGGTTTCGGGACTGGGGACGTGCTA | 3.72 |
| TTTGATATCGGGTATCGATTAGTGCTA | 0.396 |
| TTAGGTTTCGGTATCGGTAAGTGCTAG | 10.8 |
| GACAGACTGCTTTTCCTGACGTGCTAG | 0.133 |
| GCCGGTATCGACTATCGGGACGTGCTA | -0.0143 |
| AGTGTGGTCTGTTTCTGATAGTGCTAG | -0.251 |
| GACGGACTGGGTATCCGGACGTGCTAG | -0.286 |
